Published values collected from several papers.
Each numbered part is a random draw from the data of one study; scales do not carry over between parts. Positions count from the first letter of the parent shown.

Series 1 — target: CCND2, cyclin fold, Cln2 fusion (human); method: yeast growth competition, sequencing; medium: yeast; notes: weak parent motif; relative to: not given; reading: higher = stronger binding
Starting sequence: SCAPER docking peptide (human); SNARRSLNFGGST
For `SNTRRSLNFGGST [A3T]`, “normalised enrichment score” read 0.272.
For `SNARRSLNFGGSW [T13W]`, “normalised enrichment score” read 0.356.
Under “normalised enrichment score”, `SNQRRSLNFGGST [A3Q]` is recorded as -0.491.
For `SNNRRSLNFGGST [A3N]`, “normalised enrichment score” read 0.415.
`SNARWSLNFGGST [R5W]` — result for “normalised enrichment score”: 0.325.
For `SNARRSLNFHGST [G10H]`, “normalised enrichment score” read 0.319.
Under “normalised enrichment score”, `SNARRRLNFGGST [S6R]` is recorded as 0.929.
`SNARRSLNFLGST [G10L]` — result for “normalised enrichment score”: 0.265.
For `HNARRSLNFGGST [S1H]`, “normalised enrichment score” read 0.192.
`SNARRSLNFDGST [G10D]`: “normalised enrichment score” 0.207.
Under “normalised enrichment score”, `SNARRSLFFGGST [N8F]` is recorded as 0.176.
`SNARRSLNFGSST [G11S]`: “normalised enrichment score” 0.239.
Under “normalised enrichment score”, `FNARRSLNFGGST [S1F]` is recorded as 0.977.
`SCARRSLNFGGST [N2C]` — result for “normalised enrichment score”: 0.00469.
For `SNARRSLNFEGST [G10E]`, “normalised enrichment score” read 0.698.
`SNARRSLNFQGST [G10Q]` — result for “normalised enrichment score”: 0.431.
For `SNARISLNFGGST [R5I]`, “normalised enrichment score” read 0.535.
`SNARRSLNFGVST [G11V]`: “normalised enrichment score” 0.749.
Under “normalised enrichment score”, `SNMRRSLNFGGST [A3M]` is recorded as 0.5.
For `SNARRVLNFGGST [S6V]`, “normalised enrichment score” read 0.908.
For `SNAMRSLNFGGST [R4M]`, “normalised enrichment score” read 0.123.
`NNARRSLNFGGST [S1N]`: “normalised enrichment score” 0.359.

Series 2 — target: UBE2D1 UBC core domain (UniProt P51668); method: yeast two-hybrid; medium: yeast; notes: mostly zero background; relative to: not given; reading: higher = stronger interaction
B1: MSL2 RING domain (UniProt Q9HCI7); chain LLPYFRQSLSCCVCGHLLQDPIAPTNSTCQHYVCKTCKGKKMMMKPSCSWCKDYEQFEENKQ
B2: RNF32 RING domain (UniProt Q9H0A6); chain SLLQGDSVQPCPICKEEFELRPQVLLSCSHVFHKACLQAFEKFTNKKTCPLCRKNQYQTRVIH
B3: TRIM52 RING domain (UniProt Q96A61); chain PMQTLQEEAVCAICLDYFKDPVSISCGHNFCRGCVTQLWSKEDEEDQNEEEDEWEEEEDEEAV
B4: RNF4 RING domain (UniProt P78317); chain TGLRPSGTVSCPICMDGYSEIVQNGRLIVSTECGHVFCSQCLRDSLKNANTCPTCRKKINHKRYHP
B5: TRIM38 RING domain (UniProt O00635); chain STKKMMEEATCSICLSLMTNPVSINCGHSYCHLCITDFFKNPSQKQLRQETFCCPQCRAPFHMDSLRP
B6: TRIM15 RING domain (UniProt Q9C019); chain SLKVVHELPACTLCAGPLEDAVTIPCGHTFCRLCLPALSQMGAQSSGKILLCPLCQEEEQAETPMA
B7: RNF43 RING domain (UniProt Q68DV7); chain SGSSCSSAPVCAICLEEFSEGQELRVISCLHEFHRNCVDPWLHQHRTCPLCMFNITEGDSFS
B8: PEX2 RING domain (UniProt P28328); chain DNTLATSGKECALCGEWPTMPHTIGCEHIFCYFCAKSSFLFDVYFTCPKCGTEVHSLQPLK
B9: RNF112 RING domain (UniProt Q9ULX5); chain QPMAPRELPTCSICLERLRDPISLDCGHDFCIRCFSTHRLPGCEPPCCPECRKICKQKRGLR
B10: ANKIB1 RING domain (UniProt Q9P2G1); chain LSPGDLDTSLCDICMCSISVFEDPVDMPCGHDFCRGCWESFLNLKIQEGEAHNIFCPAYDCFQLVPVDIIE
Residues (chain): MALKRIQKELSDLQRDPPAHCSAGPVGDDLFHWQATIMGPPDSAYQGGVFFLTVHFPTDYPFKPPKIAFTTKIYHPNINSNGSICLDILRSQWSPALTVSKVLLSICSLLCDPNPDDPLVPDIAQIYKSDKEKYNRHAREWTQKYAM
`SYEDKSNDFVCPICFDMIEEAYMTKCGHSFCYKCIHQSLEDNNRCPKCNYVVDNIDHLY (COP1 RING domain (UniProt Q8NHY2))`: “lacZ reporter activity” 0.
For `B1 (MSL2 RING domain)`, “lacZ reporter activity” read 0.
Under “lacZ reporter activity”, `B2 (RNF32 RING domain)` is recorded as 0.
Under “lacZ reporter activity”, `B3 (TRIM52 RING domain)` is recorded as 0.
`KRQCSDVDDICSICQAEFQKPILLICQHIFCEECMTLWFNREKTCPLCRTVISDHINKW (RNFT1 RING domain (UniProt Q5M7Z0))` — result for “lacZ reporter activity”: 0.
`B4 (RNF4 RING domain)` — result for “lacZ reporter activity”: 3450.
`B5 (TRIM38 RING domain)`: “lacZ reporter activity” 0.
`B6 (TRIM15 RING domain)`: “lacZ reporter activity” 0.
`B7 (RNF43 RING domain)`: “lacZ reporter activity” 7080.
`B8 (PEX2 RING domain)`: “lacZ reporter activity” 0.
Under “lacZ reporter activity”, `B9 (RNF112 RING domain)` is recorded as 0.
Under “lacZ reporter activity”, `B10 (ANKIB1 RING domain)` is recorded as 0.
`LKQVSIRENCCSLCCDEVADTQLKPCGHSDLCMDCALQLETCPLCRKEIVSRIRQI (RSPRY1 RING domain (UniProt Q96DX4))` — result for “lacZ reporter activity”: 0.
`KIKDLNEHIVCCLCAGYFVDATTITECLHTFCKSCIVKYLQTSKYCPMCNIKIHETQPLL (PCGF1 RING domain (UniProt Q9BSM1))` — result for “lacZ reporter activity”: 0.

Series 3 — method: aptamer microarray, sandwich; form: DNA with 2'F-ANA; medium: in vitro; tested at: 200 nM; together with: Cy3 exosite-II aptamer, 400 nM; reading: higher = stronger binding; oligonucleotide: GGTTGGTGTGGTTGG
Target: Prothrombin, mature alpha-thrombin (F2, Homo sapiens, UniProt P00734)
Notes: whole 15-mer aptamer, many near background
`2'F-ANA at 2 4 5 10 12 13 15`: “mean fluorescence intensity” 48.2 a.u.
Under “mean fluorescence intensity”, `2'F-ANA at 4 5 6 8 9 12` is recorded as 159 a.u.
For `2'F-ANA at 1 4 5 6 7 10 11 13`, “mean fluorescence intensity” read 91.5 a.u.
Under “mean fluorescence intensity”, `2'F-ANA at 1 6 9 10 11 12 13` is recorded as 61 a.u.
`2'F-ANA at 1 7 10 11 12 15` — result for “mean fluorescence intensity”: 72 a.u.
`2'F-ANA at 2 3 5 8 11 12` — result for “mean fluorescence intensity”: 196 a.u.
Under “mean fluorescence intensity”, `2'F-ANA at 3 4 5 8 9 10 11 12 13 15` is recorded as 82 a.u.
Under “mean fluorescence intensity”, `2'F-ANA at 3 5 6 7 10 11 13 15` is recorded as 54.4 a.u.
For `2'F-ANA at 3 4 5 6 7 9 11 12 13 14 15`, “mean fluorescence intensity” read 52.4 a.u.
`2'F-ANA at 1 3 4 6 8 13 14`: “mean fluorescence intensity” 69.2 a.u.
`2'F-ANA at 1 6 13 14 15`: “mean fluorescence intensity” 76.3 a.u.
For `2'F-ANA at 3 4 8 11 12 13 15`, “mean fluorescence intensity” read 739 a.u.
`2'F-ANA at 2 4 7 8 9 10 12 14 15` — result for “mean fluorescence intensity”: 89.1 a.u.
Under “mean fluorescence intensity”, `2'F-ANA at 1 2 3 4 9 10 13 14` is recorded as 50.4 a.u.
For `2'F-ANA at 3 4 5 10 11 12 13`, “mean fluorescence intensity” read 55.8 a.u.
Under “mean fluorescence intensity”, `2'F-ANA at 2 5 6 9 14 15` is recorded as 48 a.u.
Under “mean fluorescence intensity”, `2'F-ANA at 1 4 6 9 11 14` is recorded as 48.7 a.u.
`2'F-ANA at 3 4 5 7 10 12 14 15` — result for “mean fluorescence intensity”: 47.5 a.u.
`2'F-ANA at 1 7 10 11 13`: “mean fluorescence intensity” 52 a.u.
`2'F-ANA at 2 5 6 7 8 9 11 14 15`: “mean fluorescence intensity” 58.3 a.u.
`2'F-ANA at 2 3 4 7 9 10 13`: “mean fluorescence intensity” 227 a.u.

Series 4 — method: DHFR PCA, dose-response; medium: yeast; notes: Hill fit, not affinity; together with: (+)-ABA, dose series; reading: lower = more sensitive
Target: ABI1, truncated, D143A, DHFR fusion (Arabidopsis thaliana, UniProt P49597)
Starting sequence: PYL1, truncated, DHFR fusion (Arabidopsis thaliana, UniProt Q8VZS8); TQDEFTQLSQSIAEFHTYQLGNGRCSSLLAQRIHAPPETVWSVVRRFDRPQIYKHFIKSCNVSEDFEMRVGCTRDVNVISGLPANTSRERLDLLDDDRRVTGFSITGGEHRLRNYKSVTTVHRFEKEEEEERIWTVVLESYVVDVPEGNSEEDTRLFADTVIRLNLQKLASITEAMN
For `N77V`, the ABA EC50 was 7.07 µM.
`G102H` has an ABA EC50 of 1680 µM.
`F103C` has an ABA EC50 of 1300 µM.
`N149S` has an ABA EC50 of 24.9 µM.
`V78Y` has an ABA EC50 of 2.04 µM.

Series 5 — method: RNA Bind-n-Seq; form: RNA; medium: in vitro; tested at: 200 nM; notes: whole 134-nt RNA, ends assumed; together with: 150 mM LiCl; relative to: input library; reading: higher = stronger binding; library: 7-deaza-guanosine replaces G
Target: Fragile X messenger ribonucleoprotein 1, C-terminal low-complexity region (Fmr1, Mus musculus, UniProt P35922)
Constant ends, left off below: GGGAGUUCUACAGUCCGACGAUC … UGGAAUUCUCGGGUGUCAAGG
The log2 enrichment of `UGGCCCUGGUGGCAUGCGGGGAGGAAGAGGUGGCCUCAUGGAUCCUGGUGGUCCCGGUGGAAUGUUCAGAGGUGGCCGUGGUGGAGACAG` is reported as -0.752.
`GUCCUGUGCUACACAUCGUAUGUACCGAAUCGGGGCCCCCGGCCCCCGGGCCCCCGGGGAAAGUAUUAUGUUACGCCGUUCGGAUCUGCA` gave a log2 enrichment of -2.5.
The log2 enrichment of `CUGUGCUACACAUCGUAUGUACCGAAUCGGGGAAAAAAAGGGGUUUUUGGGGUUUUUGGGGAAAGUAUUAUGUUACGCCGUUCGGAUCUG` is reported as -1.63.
`ACCAUGCAGGUGGGCAUCUUUGGGAAGUGGGGCAAGGGGGGGAUAGGGAGGGGGGUAACACUUUGGGAACAAGUGGUCCCAGGUCGUUUC` gave a log2 enrichment of 1.66.
The log2 enrichment of `CACAGACAACACGCACCCACACAGACACUGAGGGAAGGGGUUGGGAUGGGGACAGGGUGCACAGCAGGGCGGGGUAGGACCCCAGCCCCU` is reported as 0.301.
`CCUCAAGUCCUGUGCUACACAUCGUAUGUACCGAAUCGGGUUGGGUUGGUUGGAAAGUAUUAUGUUACGCCGUUCGGAUCUGCACUUCCA` gave a log2 enrichment of 0.0376.
With `UCCUGUGCUACACAUCGUAUGUACCGAAUCGGGUUUUUGGGUUUUUGGGUUUUUUUGGGAAAGUAUUAUGUUACGCCGUUCGGAUCUGCA` the log2 enrichment was -0.0579.
With `GUCCUGUGCUACACAUCGUAUGUACCGAAUCGGCCCCCGGGGCCCCCGGGCCCCCGGGGAAAGUAUUAUGUUACGCCGUUCGGAUCUGCA` the log2 enrichment was -2.92.
The log2 enrichment of `UGUCCUGUGCUUUCACAUUCUUUCUGCAUGGAGAAAGUAAUGUAUGCACAAGUGUGGAGAUUGCCCAGCACCAGCCAAUUUAUUUGAUCA` is reported as -3.42.
`CCUCAAGUCCUGUGCUACACAUCGUAUGUACCGAAUCGGUGGUGGUUUUUGGAAAGUAUUAUGUUACGCCGUUCGGAUCUGCACUUCCAG` has a log2 enrichment of 0.0431.
With `GUCCUGUGCUACACAUCGUAUGUACCGAAUCGGGGAAAGGGGUUUUUUUGGGGAGGGGAAAGUAUUAUGUUACGCCGUUCGGAUCUGCAC` the log2 enrichment was -0.329.

Repeated from above (series 2):
`B8 (PEX2 RING domain)`: “lacZ reporter activity” 0.
Under “lacZ reporter activity”, `B9 (RNF112 RING domain)` is recorded as 0.
Under “lacZ reporter activity”, `B10 (ANKIB1 RING domain)` is recorded as 0.
`LKQVSIRENCCSLCCDEVADTQLKPCGHSDLCMDCALQLETCPLCRKEIVSRIRQI (RSPRY1 RING domain (UniProt Q96DX4))` — result for “lacZ reporter activity”: 0.
